Measurements from different studies.
A part holds a random share of what one study measured. Positions count from the first letter of the parent shown.

Block 1
Target: Interferon regulatory factor 3, full length, phosphomimetic (IRF3, Homo sapiens, UniProt Q14653, residues 1-427, S386D/S396D/S398D/S402D/T404D/S405D)
Sequence of UniProt Q14653 (whole entry, unmodified, looked up): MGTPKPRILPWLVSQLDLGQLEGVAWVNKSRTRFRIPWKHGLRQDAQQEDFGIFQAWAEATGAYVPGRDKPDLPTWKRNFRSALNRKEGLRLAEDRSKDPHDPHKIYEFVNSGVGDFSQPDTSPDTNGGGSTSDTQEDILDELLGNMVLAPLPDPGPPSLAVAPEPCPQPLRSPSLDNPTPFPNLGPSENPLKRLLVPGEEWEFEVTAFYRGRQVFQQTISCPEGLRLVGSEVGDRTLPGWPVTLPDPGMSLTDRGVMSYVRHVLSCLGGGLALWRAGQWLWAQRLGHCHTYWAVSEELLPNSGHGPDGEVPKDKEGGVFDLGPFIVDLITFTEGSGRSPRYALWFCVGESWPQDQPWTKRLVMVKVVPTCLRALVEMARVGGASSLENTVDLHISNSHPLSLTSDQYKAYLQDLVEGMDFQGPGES
Method: protein-binding microarray
Form: double-stranded DNA, one strand shown
Matrix: in vitro
Concentration: 2540 nM top
Setting: 60-bp whole probe
Added: salmon DNA 0.4 mg/ml
Baseline: random background probes
Direction: higher = stronger binding
Constant ends, left off below: GCCTAGCAC … GTCTTGATTCGCTTGACGCTGCTG
Strand	fitted relative affinity [z-score]
GACGGTTTCGGTATGGGGACGTGCTAG	6.92
GACGGTTTCGGGTTTCGGTACGTGCTA	6.28
TTAGATTTTGGGTTTCGATTAGTGCTA	1.9
TCATGTGTCTTAAATAGGACTGTGCTA	-0.0219
TCACGTTTACATTTTCCACTGTGCTAG	1.62
TCAATGTTCCCTATATAACTGTGCTAG	1.59
TTCAATTCCTGAAATCTCTTTGTGCTA	0.0915
TCTAATTAGAATTTAAAACAGTGCTAG	0.665
TTAGATTTCAGTCTCGATAAGTGCTAG	2.52
CTGGTCTCCGGTGTTTCCTAGTGCTAG	0.952
TTAGGACTGTTTATCCTTTAGTGCTAG	0.916
TTAGGACGGGACTATCGGTTAGTGCTA	-0.375
GACGGTCTCCTGCTGCTGACGTGCTAG	0.174
TTAGGTTTCGACTATGGGTTAGTGCTA	2.24
TCATAGTTGTGTCTTGCACTGTGCTAG	-0.0301
GACGATATCAATTTCGAGACGTGCTAG	1.4

Block 2
Target: CCNE1, cyclin fold, Cln2 fusion (human)
Method: yeast growth competition, sequencing
Matrix: yeast
Setting: strong parent motif
Baseline: not given
Direction: higher = stronger binding
Parent: ASZ1 docking peptide (human); GFGFLLFICKLTF
Variant	normalised enrichment score
AFGFLLFICKLTF [G1A]	1.39
GFGFLLAICKLTF [F7A]	0.71
GAGFLLFICKLTF [F2A]	1.09
GFGFLLFIAKLTF [C9A]	1.68
GFGFLLFICKLAF [T12A]	1.28
GFAFLLFICKLTF [G3A]	1.34
GFGFLLFICALTF [K10A]	1.14

Block 3
Target: Ras GTPase-activating protein-binding protein 1, full length (G3BP1, Homo sapiens, UniProt Q13283)
Sequence of UniProt Q13283 (whole entry, looked up): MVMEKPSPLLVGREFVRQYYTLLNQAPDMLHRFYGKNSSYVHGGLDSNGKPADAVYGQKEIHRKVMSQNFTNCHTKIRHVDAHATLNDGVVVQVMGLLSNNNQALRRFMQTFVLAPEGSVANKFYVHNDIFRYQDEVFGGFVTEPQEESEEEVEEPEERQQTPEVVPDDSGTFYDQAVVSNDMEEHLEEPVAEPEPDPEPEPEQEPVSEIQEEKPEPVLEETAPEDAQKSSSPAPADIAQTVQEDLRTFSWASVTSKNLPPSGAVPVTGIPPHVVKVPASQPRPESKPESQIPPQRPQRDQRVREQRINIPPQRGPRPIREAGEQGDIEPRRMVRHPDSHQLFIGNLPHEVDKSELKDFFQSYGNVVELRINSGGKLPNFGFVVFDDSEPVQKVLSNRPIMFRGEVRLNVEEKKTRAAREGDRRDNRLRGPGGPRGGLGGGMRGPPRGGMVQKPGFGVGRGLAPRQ
Method: RNA Bind-n-Seq
Form: RNA
Matrix: in vitro
Concentration: 200 nM
Setting: whole 134-nt RNA, ends assumed
Added: 150 mM KCl
Baseline: input library
Direction: higher = stronger binding
Constant ends, left off below: GGGAGUUCUACAGUCCGACGAUC … UGGAAUUCUCGGGUGUCAAGG
Strand	log2 enrichment
UAACUUUAGAGGAGGAUCUGAUGGAAAUGGCAGUGGACGUGGAUUUGGGGAUGGCUAUAAUGGGUAUGGAGGAGGACCUGGAGGUGGCAA	0.302
GUCCUGUGCUACACAUCGUAUGUACCGAAUCGGGAAAAAAAGGGAAAGGGUUUUUGGGAAAGUAUUAUGUUACGCCGUUCGGAUCUGCAC	-0.459
UGGCCCUGGUGGCAUGCGGGGAGGAAGAGGUGGCCUCAUGGAUCGUGGUGGUCCCGGUGGAAUGUUGAGAGGUGGCCGUGGUGGAGACAG	0.331
ACCAUGCAGGUGGGCAUCUUUGGGCAGUGGGGCAAGGGGGGGAUAGGGAGGGGGGUAACACUUUGGGAACAGGUGGUCCCAGGUCGUUUC	1.22
GUCCUGUGCUACACAUCGUAUGUACCGAAUCGGAAAAAGGUUUUUUUGGUUUUUUUGGAAAGUAUUAUGUUACGCCGUUCGGAUCUGCAC	-1.55
CACAGACAACACGCACCCACACAGACACAGAGGGAAGGGGUUGGGAUGGGGACAGGGUGCACAGCAGGGCGGGGUAGGACCCCAGCCCCA	1.78
UCAGAGGAAUAUCCUUGACUUCCCCCAGCAUGUUUCCCCCUCCAAGGACAUCCGGACAGCCAGCACAGAGGCCGACAAGAAGCUCUCUGA	-0.0806
AAGUCCUGUGCUACACAUCGUAUGUACCGAAUCGGGGUUUGGGGUUUGGGGAGGGGAAAGUAUUAUGUUACGCCGUUCGGAUCUGCACUU	0.949
GUCCUGUGCUACACAUCGUAUGUACCGAAUCAAACCCCCAAACCCCCAAACCCCCAAAAAAGUAUUAUGUUACGCCGUUCGGAUCUGCAC	-0.483
UGGUUUUGGUGCCUGGCAUCGAAGAUGGUGUGUUCUUUCUGGAAACUGUAUAUCUUAUUGGACUUAUCCAGAUGAUGAGAAACGCAAGGU	-0.666
AGUCCUGUGCUACACAUCGUAUGUACCGAAUCGGGUGGGUUUUUGGGUUUUUUUGGGAAAGUAUUAUGUUACGCCGUUCGGAUCUGCACU	-0.312
UGCUGGAGGCAAAAAAUGCCAGCCUGGCGUCGUCCAACAACGACUUGCAGGUGGCCGAGGAGCAGUACCAGAGGCUUAUGGCCAAGGUAG	-2.34
CACAAACAACACGCACCCACACAGACACAGAGGGAAGGGGUUGGGAUGGGGACAGGGUGCACAGCAGGGCGGGGUAGGACCCCAGCCCCU	1.84
CCUCAAGUCCUGUGCUACACAUCGUAUGUACCGAAUCGGGCCGGCCGGCCGGGAAAGUAUUAUGUUACGCCGUUCGGAUCUGCACUUCCA	0.271

Block 4
Target: ABI1, truncated, D143A, DHFR fusion (Arabidopsis thaliana)
Method: DHFR PCA, deep sequencing
Matrix: yeast
Setting: methotrexate growth selection, single substitutions
Added: (+)-ABA 4.8 µM
Baseline: wild-type fitted maximum
Direction: higher = stronger binding
Parent: PYL1, truncated, DHFR fusion (Arabidopsis thaliana); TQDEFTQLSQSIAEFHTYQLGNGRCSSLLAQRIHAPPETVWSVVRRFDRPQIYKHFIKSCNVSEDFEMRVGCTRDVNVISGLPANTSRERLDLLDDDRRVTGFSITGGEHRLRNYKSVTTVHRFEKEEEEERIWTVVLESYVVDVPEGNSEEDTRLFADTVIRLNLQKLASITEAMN; partner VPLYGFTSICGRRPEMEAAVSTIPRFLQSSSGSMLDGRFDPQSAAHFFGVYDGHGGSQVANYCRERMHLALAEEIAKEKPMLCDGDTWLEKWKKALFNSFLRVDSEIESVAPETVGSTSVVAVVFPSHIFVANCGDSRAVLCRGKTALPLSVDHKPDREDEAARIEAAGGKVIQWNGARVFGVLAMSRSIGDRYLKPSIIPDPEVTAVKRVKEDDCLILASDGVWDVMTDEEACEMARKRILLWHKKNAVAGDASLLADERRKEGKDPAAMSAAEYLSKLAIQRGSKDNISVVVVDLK
Variant	relative binding score
Q31D	-13.4%
G71I	-6.79%
N85R	87.7%
D3F	60.1%
H34Y	69.1%
E129I	56.9%
E131K	84.9%
I79K	47.5%
D97A	80.6%
G23A	42.9%
F5H	60%
I162L	5.33%
E125N	75.8%
S171P	11.5%
A175W	44.5%
P83F	9.75%
L164P	-24.3%
R98C	15.9%

Block 5
Target: TEF, bZIP domain (human)
Method: DHFR protein complementation
Matrix: yeast
Setting: single substitutions, most at no-binding floor
Baseline: wild-type JUN-FOS pair
Direction: higher = stronger binding
Parent: JUN, bZIP domain (human); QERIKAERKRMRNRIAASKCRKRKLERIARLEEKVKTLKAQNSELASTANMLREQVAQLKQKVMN; partner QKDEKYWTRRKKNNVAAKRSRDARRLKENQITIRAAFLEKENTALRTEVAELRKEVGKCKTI
Variant	binding fitness [natural log]
L52S	-1.51
V56L	-1.43
S47D	-1.44
L38S	-1.57
L45H	-1.51
L52C	-1.5
V35W	-1.53
L52M	-1.38
L52R	-1.48
V35E	-1.55
K34F	-1.58
A29V	-1.27
L45I	-1.56
S47F	-1.48

Block 6
Target: Histone acetyltransferase KAT6A, winged helix 2, GST fusion (KAT6A, Homo sapiens, UniProt Q92794, residues 85-181)
Method: protein binding microarray
Form: double-stranded DNA, one strand shown
Matrix: in vitro
Concentration: not given
Setting: 8-mer, flanks averaged, mean of 2 arrays, mostly near background
Baseline: not given
Direction: higher = stronger binding
Target sequence (chain): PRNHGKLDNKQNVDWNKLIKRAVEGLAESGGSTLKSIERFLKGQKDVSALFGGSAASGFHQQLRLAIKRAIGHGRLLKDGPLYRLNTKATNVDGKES
Strand	E-score
AAATCCTT	0.0331
AGTCCAAA	0.028
ACCCTTCA	-0.0385
ACGTCTTC	-0.255
AGCCCGGC	0.186
AACAGCCA	0.133
GCAGCATA	0.102
ACTACCCT	-0.232
AGGGAGTG	-0.0338
CTGGGGCC	0.137
CGCAGGGC	0.232
CTTAGCAA	0.131
TAATGCCA	0.0154
CTTCTACA	-0.141
ATTCGCAC	-0.1
ACCACCCG	0.114
ACTACCGG	-0.197
CGGCAGAA	0.228
GGGCCCGA	0.092
CGCAGGCC	0.192
GTTTTGTA	0.0435
AATGGTTA	-0.0713
CCCTTCGG	0.112
AGTCGACT	-0.112
AGGCAATG	0.0597

For quick reference, copied from above (block 1):
Strand	fitted relative affinity [z-score]
TTCAATTCCTGAAATCTCTTTGTGCTA	0.0915
TCACGTTTACATTTTCCACTGTGCTAG	1.62
TCAATGTTCCCTATATAACTGTGCTAG	1.59
TTAGGACTGTTTATCCTTTAGTGCTAG	0.916
TTAGATTTTGGGTTTCGATTAGTGCTA	1.9
TCATGTGTCTTAAATAGGACTGTGCTA	-0.0219
TTAGATTTCAGTCTCGATAAGTGCTAG	2.52
TCTAATTAGAATTTAAAACAGTGCTAG	0.665
CTGGTCTCCGGTGTTTCCTAGTGCTAG	0.952
